Measurements collected from several papers.
± marks the error that the study gave.
UniProt P22607, sequence (whole entry, looked up): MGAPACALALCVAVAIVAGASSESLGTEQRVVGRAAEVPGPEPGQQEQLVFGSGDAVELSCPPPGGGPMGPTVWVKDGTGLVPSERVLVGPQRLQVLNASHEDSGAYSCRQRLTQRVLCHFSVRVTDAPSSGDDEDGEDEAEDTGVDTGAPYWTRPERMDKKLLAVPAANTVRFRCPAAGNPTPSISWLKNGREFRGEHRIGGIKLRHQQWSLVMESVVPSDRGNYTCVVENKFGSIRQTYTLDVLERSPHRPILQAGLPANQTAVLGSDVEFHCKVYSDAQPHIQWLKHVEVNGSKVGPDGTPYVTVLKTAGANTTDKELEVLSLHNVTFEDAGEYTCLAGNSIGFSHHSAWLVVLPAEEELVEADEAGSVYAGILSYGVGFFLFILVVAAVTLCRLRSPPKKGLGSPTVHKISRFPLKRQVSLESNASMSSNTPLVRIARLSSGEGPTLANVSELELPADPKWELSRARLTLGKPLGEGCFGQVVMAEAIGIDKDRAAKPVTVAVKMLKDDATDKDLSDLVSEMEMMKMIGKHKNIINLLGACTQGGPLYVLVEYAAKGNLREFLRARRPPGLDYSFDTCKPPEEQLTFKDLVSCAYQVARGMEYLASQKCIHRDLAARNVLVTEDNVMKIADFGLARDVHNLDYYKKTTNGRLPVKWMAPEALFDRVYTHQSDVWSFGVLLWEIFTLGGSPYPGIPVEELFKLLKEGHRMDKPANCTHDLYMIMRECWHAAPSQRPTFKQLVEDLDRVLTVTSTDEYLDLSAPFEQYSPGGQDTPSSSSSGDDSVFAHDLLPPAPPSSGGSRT
UniProt P17865, sequence (whole entry, looked up): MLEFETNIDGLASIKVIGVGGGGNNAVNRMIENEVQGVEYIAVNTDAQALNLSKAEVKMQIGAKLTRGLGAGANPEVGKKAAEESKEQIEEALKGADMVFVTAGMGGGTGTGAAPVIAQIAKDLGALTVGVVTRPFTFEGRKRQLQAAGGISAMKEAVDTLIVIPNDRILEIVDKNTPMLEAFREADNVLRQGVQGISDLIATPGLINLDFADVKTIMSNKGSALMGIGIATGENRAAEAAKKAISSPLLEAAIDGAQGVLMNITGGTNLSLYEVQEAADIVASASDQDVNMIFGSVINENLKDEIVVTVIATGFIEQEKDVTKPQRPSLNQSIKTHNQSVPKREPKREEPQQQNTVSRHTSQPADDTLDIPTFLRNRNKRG
UniProt A0A109QYD3, sequence (whole entry, looked up): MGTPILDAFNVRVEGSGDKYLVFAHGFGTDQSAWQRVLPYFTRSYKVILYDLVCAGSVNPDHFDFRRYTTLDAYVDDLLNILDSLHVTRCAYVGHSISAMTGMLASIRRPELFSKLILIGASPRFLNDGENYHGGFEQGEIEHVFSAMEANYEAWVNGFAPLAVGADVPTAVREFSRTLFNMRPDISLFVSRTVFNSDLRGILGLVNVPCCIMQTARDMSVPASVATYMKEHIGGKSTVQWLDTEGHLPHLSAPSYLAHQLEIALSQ
UniProt P22629, sequence (whole entry, looked up): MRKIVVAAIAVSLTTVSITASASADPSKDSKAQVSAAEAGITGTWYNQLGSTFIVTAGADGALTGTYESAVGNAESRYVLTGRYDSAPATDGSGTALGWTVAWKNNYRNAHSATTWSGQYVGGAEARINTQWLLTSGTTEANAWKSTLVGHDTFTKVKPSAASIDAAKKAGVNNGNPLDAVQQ
UniProt Q62234, sequence (whole entry, looked up): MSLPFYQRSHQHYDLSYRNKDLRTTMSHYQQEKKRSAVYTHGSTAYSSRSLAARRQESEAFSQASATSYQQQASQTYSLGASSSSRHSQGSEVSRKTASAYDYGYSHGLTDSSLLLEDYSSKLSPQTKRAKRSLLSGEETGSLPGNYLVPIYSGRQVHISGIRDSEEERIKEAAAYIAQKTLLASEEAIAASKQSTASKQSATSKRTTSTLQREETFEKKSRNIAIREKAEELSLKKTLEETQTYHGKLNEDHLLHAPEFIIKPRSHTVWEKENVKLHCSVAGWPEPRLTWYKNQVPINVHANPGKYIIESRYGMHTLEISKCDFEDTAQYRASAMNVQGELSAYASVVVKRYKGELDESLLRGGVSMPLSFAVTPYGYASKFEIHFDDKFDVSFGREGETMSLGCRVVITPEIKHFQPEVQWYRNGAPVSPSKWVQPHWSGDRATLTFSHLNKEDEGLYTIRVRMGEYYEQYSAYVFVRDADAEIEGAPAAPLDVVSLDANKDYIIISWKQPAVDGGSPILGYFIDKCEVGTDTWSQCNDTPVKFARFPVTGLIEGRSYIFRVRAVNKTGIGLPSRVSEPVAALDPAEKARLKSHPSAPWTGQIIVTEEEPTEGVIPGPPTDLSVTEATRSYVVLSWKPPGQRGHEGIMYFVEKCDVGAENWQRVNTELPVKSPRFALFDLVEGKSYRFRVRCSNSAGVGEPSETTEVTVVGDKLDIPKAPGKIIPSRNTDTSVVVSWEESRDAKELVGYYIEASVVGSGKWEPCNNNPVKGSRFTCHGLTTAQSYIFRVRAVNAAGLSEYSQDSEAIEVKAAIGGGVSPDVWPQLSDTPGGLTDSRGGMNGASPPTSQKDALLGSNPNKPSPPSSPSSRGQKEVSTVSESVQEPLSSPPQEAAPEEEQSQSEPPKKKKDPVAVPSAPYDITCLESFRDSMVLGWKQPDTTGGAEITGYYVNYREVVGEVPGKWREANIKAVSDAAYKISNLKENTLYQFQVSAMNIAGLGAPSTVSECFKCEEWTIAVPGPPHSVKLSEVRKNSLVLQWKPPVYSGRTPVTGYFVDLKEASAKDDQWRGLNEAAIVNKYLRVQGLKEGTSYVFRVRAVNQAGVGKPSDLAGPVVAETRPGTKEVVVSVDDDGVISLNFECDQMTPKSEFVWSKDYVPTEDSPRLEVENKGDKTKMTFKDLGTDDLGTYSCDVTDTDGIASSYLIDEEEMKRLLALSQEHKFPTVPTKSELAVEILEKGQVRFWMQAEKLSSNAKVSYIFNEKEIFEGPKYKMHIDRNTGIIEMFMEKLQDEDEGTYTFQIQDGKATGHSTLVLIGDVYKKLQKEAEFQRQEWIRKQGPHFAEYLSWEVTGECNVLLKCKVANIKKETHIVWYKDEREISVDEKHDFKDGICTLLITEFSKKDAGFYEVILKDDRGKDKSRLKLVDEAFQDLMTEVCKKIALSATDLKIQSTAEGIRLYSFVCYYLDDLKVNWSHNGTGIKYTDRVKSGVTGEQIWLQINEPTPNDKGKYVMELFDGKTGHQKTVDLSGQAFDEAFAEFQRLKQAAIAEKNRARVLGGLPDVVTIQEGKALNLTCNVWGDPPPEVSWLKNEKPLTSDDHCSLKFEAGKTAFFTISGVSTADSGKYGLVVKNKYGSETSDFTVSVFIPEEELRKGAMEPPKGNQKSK
UniProt Q9HB29, sequence (whole entry, looked up): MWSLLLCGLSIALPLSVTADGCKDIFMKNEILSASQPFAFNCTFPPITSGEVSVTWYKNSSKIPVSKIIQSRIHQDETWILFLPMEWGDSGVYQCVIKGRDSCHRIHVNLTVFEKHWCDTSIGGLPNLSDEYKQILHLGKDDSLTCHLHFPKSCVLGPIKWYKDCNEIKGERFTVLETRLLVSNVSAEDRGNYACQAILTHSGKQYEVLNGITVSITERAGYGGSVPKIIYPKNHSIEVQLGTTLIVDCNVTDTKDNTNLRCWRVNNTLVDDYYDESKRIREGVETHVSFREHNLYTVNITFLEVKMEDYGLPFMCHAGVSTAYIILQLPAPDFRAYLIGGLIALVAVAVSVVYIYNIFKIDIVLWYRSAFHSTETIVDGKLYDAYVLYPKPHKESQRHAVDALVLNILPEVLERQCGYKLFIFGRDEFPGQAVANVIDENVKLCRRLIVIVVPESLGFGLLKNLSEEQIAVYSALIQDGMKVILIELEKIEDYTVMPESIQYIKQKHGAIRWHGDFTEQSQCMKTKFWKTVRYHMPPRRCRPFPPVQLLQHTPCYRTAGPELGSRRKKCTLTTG
UniProt P93343, sequence (whole entry, looked up): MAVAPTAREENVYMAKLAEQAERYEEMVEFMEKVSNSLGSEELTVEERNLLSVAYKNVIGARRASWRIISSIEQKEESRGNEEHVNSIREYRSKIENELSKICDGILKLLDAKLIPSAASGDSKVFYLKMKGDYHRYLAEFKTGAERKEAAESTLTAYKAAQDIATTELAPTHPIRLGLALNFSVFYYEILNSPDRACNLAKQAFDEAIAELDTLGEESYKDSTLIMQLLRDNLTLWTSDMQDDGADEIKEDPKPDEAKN
UniProt O95931, sequence (whole entry, looked up): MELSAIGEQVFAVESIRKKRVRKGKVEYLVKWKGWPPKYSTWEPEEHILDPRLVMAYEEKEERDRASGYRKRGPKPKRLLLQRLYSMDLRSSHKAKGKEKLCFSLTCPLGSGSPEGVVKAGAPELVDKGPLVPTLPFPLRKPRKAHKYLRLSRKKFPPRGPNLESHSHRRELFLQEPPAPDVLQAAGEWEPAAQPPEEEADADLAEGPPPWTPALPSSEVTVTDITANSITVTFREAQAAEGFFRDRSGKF

SMILES | target | assay | setting | Kd [µM]
CC[C@H](C)[C@H](NC(=O)[C@@H]1CSCc2cccc(c2)CSC[C@H](NC(=O)[C@@H](NC(=O)[C@H](Cc2ccc(O)cc2)NC(=O)[C@H](CO)NC(=O)[C@H](Cc2ccccc2)NC(=O)[C@H](CCSC)NC(C)=O)C(C)C)C(=O)N[C@@H]([C@@H](C)O)C(=O)N[C@@H](CC(C)C)C(=O)N[C@@H](CCCCN)C(=O)N[C@@H](CO)C(=O)N1)C(=O)N[C@@H](C)C(=O)N[C@@H](CCSC)C(=O)N[C@@H](Cc1c[nH]cn1)C(=O)NCC(=O)N[C@@H](CO)C(=O)NCC(=O)N[C@@H](CO)C(=O)NCC(=O)N[C@@H](CO)C(=O)N[C@@H](CC(=O)O)C(=O)N[C@@H](Cc1ccc(O)cc1)C(=O)N[C@@H](CCCCN)C(=O)N[C@@H](CC(=O)O)C(=O)N[C@@H](CC(=O)O)C(=O)N[C@@H](CC(=O)O)C(=O)N[C@@H](CC(=O)O)C(=O)N[C@@H](CCCCN)C(N)=O | FGFR3 (Homo sapiens, UniProt P22607) | binding, BLI |  | 0.0134
CC(C)[C@@H]1NC(=O)[C@H](Cc2ccccc2)NC(=O)CSC[C@@H](C(N)=O)NC(=O)[C@H](CCC(=O)O)NC(=O)[C@H](CO)NC(=O)[C@H](Cc2c[nH]c3cccc(Cl)c23)NC(=O)[C@H](C2CCCCC2)NC(=O)[C@H](C(C)C)NC(=O)[C@H](Cc2ccc(O)cc2)NC(=O)[C@H](CC(=O)O)NC(=O)[C@H](Cc2c[nH]c3ccccc23)NC(=O)[C@H](Cc2ccc(N)nc2)NC(=O)[C@H](Cc2c[nH]c3ccc(Cl)cc23)NC(=O)[C@H](CCC(=O)O)NC1=O | Interleukin-1 receptor-like 2, D1-D3 domains (IL1RL2, Homo sapiens, UniProt Q9HB29) | SPR | IL-36R D1-D3 extracellular domain | 0.00066
CC1=C[C@H](O/C=C2/C(=O)O[C@H]3c4ccccc4C[C@@H]23)OC1=O (racemic) | RMS3 (Lathyrus oleraceus, UniProt A0A109QYD3) | binding, fluorescence |  | 71
CC(C)C[C@H](NC(=O)CNC(=O)[C@H](CCC(N)=O)NC(=O)CNC(=O)CNC(=O)CNC(=O)CNC(=O)CNC(=O)CNC(=O)CNC(=O)CNC(=O)CNC(=O)CNC(=O)[C@H](CO)NC(=O)[C@H](C)NC(=O)[C@H](CC(C)C)NC(=O)[C@H](CC(=O)O)NC(=O)[C@H](CC(C)C)NC(=O)[C@H](C)NC(=O)[C@H](CC(=O)O)NC(=O)[C@H](C)NC(=O)[C@H](CC(C)C)NC(=O)CNC(=O)[C@H](CCC(N)=O)NC(=O)COCCNC(=S)Nc1ccc2c(c1)C(=O)OC21c2ccc(O)cc2Oc2cc(O)ccc21)C(=O)N[C@@H](C)C(=O)N[C@@H](CC(=O)O)C(=O)N[C@@H](C)C(=O)N[C@@H](CC(C)C)C(=O)N[C@@H](CC(=O)O)C(=O)N[C@@H](CC(C)C)C(=O)N[C@@H](C)C(=O)N[C@@H](CO)C(N)=O | 14-3-3-like protein C (Nicotiana tabacum, UniProt P93343) | binding, fluorescence polarization | pH 7.4 | 5.9 ± 0.9
CC(=O)O[C@@]12COC1C[C@H](O)C1(C)C(=O)[C@H](O)C3=C(C)[C@@H](OC(=O)/C=C/c4ccc5ccccc5c4)C[C@@](O)([C@@H](OC(=O)c4ccccc4)[C@@H]12)C3(C)C (stereo partly drawn) | ftsZ (Bacillus subtilis, UniProt P17865) | binding, fluorescence |  | 29
CC[C@H](C)[C@H](NC(=O)[C@H](CC(N)=O)NC(=O)[C@@H](NC(=O)[C@H](Cc1ccccc1)NC(=O)[C@@H](NC(=O)[C@H](CO)NC(=O)[C@@H](NC(=O)[C@H](C)NC(=O)[C@H](CCC(=O)O)NC(=O)[C@H](CCCCN)NC(=O)[C@H](Cc1ccc(O)cc1)NC(=O)[C@H](CC(C)C)NC(=O)[C@@H]1CCCN1C(=O)[C@H](CC(N)=O)NC(=O)[C@H](CC(N)=O)NC(=O)[C@H](C)NC(=O)[C@@H](NC(=O)[C@H](CC(=O)O)NC(=O)[C@H](Cc1c[nH]c2ccccc12)NC(=O)[C@@H](N)CCCCN)[C@@H](C)O)[C@@H](C)O)[C@@H](C)O)[C@@H](C)O)C(=O)N[C@H](C(=O)N[C@@H](Cc1ccc(O)cc1)C(=O)N[C@@H](CCCNC(=N)N)C(=O)NCC(=O)N[C@H](C(=O)O)[C@@H](C)O)[C@@H](C)O | Myomesin-1, IgC2 domain 4 (Myom1, Mus musculus, UniProt Q62234) | binding, ITC | pH 6.8, 25 °C, 50 mM NaCl, together with: Sk4 0.175 mM | 10.7 ± 9.9
CC[C@H](C)[C@H](NC(=O)[C@H](Cc1ccccc1)NC(=O)[C@H](C)NC(=O)[C@H](CCCNC(=N)N)NC(=O)CNC(=O)CNC(=O)CNC(=O)CNC(=O)[C@H](CCSC)NC(=O)[C@H](Cc1ccc(O)cc1)NC(=O)[C@@H]1CCCN1C(=O)[C@@H](NC(=O)[C@H](C)NC(=O)[C@H](CO)NC(=O)[C@H](CO)NC(=O)[C@H](CC(C)C)NC(=O)[C@H](Cc1c[nH]c2ccccc12)NC(=O)[C@H](Cc1ccc(O)cc1)NC(=O)[C@H](Cc1c[nH]cn1)NC(=O)[C@H](CS)NC(=O)[C@H](CO)NC(=O)[C@H](Cc1ccc(O)cc1)NC(=O)[C@@H](N)CO)C(C)C)C(=O)N[C@@H](C)C(=O)N[C@@H](CO)C(=O)N[C@@H](CCCNC(=N)N)C(=O)N[C@@H](CCCNC(=N)N)C(=O)N[C@H](C(=O)N[C@@H](CCCNC(=N)N)C(=O)N[C@@H](CCCNC(=N)N)C(=O)N1CCC[C@H]1C(=O)O)[C@@H](C)CC | Streptavidin (Streptomyces avidinii, UniProt P22629) | binding |  | 0.01
CC[C@H](C)[C@@H]1NC(=O)[C@H](CC(=O)O)NC(=O)CNC(=O)[C@H]([C@@H](C)CC)NC(=O)[C@H]([C@@H](C)CC)NC(=O)[C@H](CCC(=O)O)NC(=O)CNC(=O)[C@@H]2CCCN2C(=O)[C@H](CCCNC(=N)N)NC(=O)[C@H]([C@@H](C)O)NC(=O)[C@H](CC(N)=O)NC(=O)[C@H](CC(N)=O)NC(=O)[C@H](CC(N)=O)NC(=O)[C@@H]2CCCN2C(=O)[C@H](CCCNC(=N)N)NC(=O)[C@H]([C@@H](C)O)NC(=O)[C@@H](NC(=O)[C@H](CC(N)=O)NC(=O)[C@@H](NC(=O)[C@H](CCC(=O)O)NC(=O)CCCCCNC(=O)CCCC[C@@H]2SC[C@@H]3NC(=O)N[C@@H]32)[C@@H](C)CC)CSSC[C@@H](C(=O)N[C@@H](CC(=O)N[C@@H]2O[C@H](CO)[C@@H](O[C@@H]3O[C@H](CO)[C@@H](O[C@@H]4O[C@H](CO[C@H]5O[C@H](CO[C@H]6O[C@H](CO)[C@@H](O)[C@H](O)[C@@H]6O[C@H]6O[C@H](CO)[C@@H](O)[C@H](O)[C@@H]6O)[C@@H](O)[C@H](O[C@H]6O[C@H](CO)[C@@H](O)[C@H](O)[C@@H]6O[C@H]6O[C@H](CO)[C@@H](O)[C@H](O)[C@@H]6O)[C@@H]5O)[C@@H](O)[C@H](O[C@H]5O[C@H](CO)[C@@H](O)[C@H](O)[C@@H]5O[C@H]5O[C@H](CO)[C@@H](O)[C@H](O)[C@@H]5O[C@H]5O[C@H](CO)[C@@H](O)[C@H](O)[C@@H]5O)[C@@H]4O)[C@H](O)[C@H]3NC(C)=O)[C@H](O)[C@H]2NC(C)=O)C(=O)N[C@H](C(=O)N[C@@H](CO)C(=O)N[C@@H](CCCNC(=N)N)C(=O)N[C@@H](C)C(=O)N[C@@H](CCCCN)C(=O)N[C@@H](Cc2c[nH]c3ccccc23)C(=O)N[C@@H](CC(N)=O)C(N)=O)[C@@H](C)CC)NC(=O)[C@H](Cc2c[nH]cn2)NC(=O)[C@H](C)NC(=O)[C@H](CCC(N)=O)NC(=O)[C@H](CCCNC(=N)N)NC1=O | PGT128 antibody | SPR | pH 7.4, 25 °C | 3.75
C[C@H](N)C(=O)N[C@@H](CCCNC(=N)N)C(=O)N[C@H](C(=O)N[C@@H](CCCCN)C(=O)N[C@@H](CCC(N)=O)C(=O)N[C@H](C(=O)N[C@@H](C)C(=O)N[C@@H](CCCNC(=N)N)C(=O)N[C@@H](CCCCN)C(=O)N[C@@H](CO)C(=O)N[C@H](C(=O)NCC(=O)NCC(=O)N[C@@H](CCCCN)C(=O)N[C@@H](C)C(=O)O)[C@@H](C)O)[C@@H](C)O)[C@@H](C)OP(=O)(O)O | DNMT3A (Homo sapiens, UniProt Q9Y6K1) | binding, ITC |  | 59.9
N=C(N)Nc1ccc(-c2nc3ccc(-c4ccc5nc(-c6ccc(NC(=N)N)cc6)[nH]c5c4)cc3[nH]2)cc1 | r(CAG)12 RNA | binding, microscale thermophoresis |  | > 5
CC(C)C[C@H](NC(=O)[C@H](C)NC(=O)[C@H](Cc1ccccc1)NC(=O)CNC(=O)[C@@H](N)CCCNC(=N)N)C(=O)N[C@@H](CCCC[N+](C)(C)C)C(=O)N[C@@H](CO)C(=O)N[C@H](C(=O)N[C@@H](Cc1c[nH]cn1)C(=O)NCC(=O)O)[C@@H](C)O | Chromobox protein homolog 7, chromodomain (Homo sapiens, UniProt O95931) | binding, fluorescence polarization | together with: SETDB1 consensus peptide | 5 ± 0.5
N=C(N)NCCC[C@H](NC(=O)[C@H](CS)NC(=O)[C@H](Cc1ccc(O)cc1)NC(=O)[C@H](Cc1c[nH]c2ccccc12)NC(=O)[C@H](CCCNC(=N)N)NC(=O)[C@H](Cc1c[nH]c2ccccc12)NC(=O)[C@H](Cc1c[nH]cn1)NC(=O)CNC(=O)CN)C(=O)NCC(=O)NCC(=O)N[C@@H](CCCCN)C(N)=O | HCV IV RNA | fluorescein-labelled RNA titration | 1 mM TCEP | 12 ± 1

Excerpt of the above:
SMILES | target | assay | setting | Kd [µM]
CC[C@H](C)[C@H](NC(=O)[C@H](Cc1ccccc1)NC(=O)[C@H](C)NC(=O)[C@H](CCCNC(=N)N)NC(=O)CNC(=O)CNC(=O)CNC(=O)CNC(=O)[C@H](CCSC)NC(=O)[C@H](Cc1ccc(O)cc1)NC(=O)[C@@H]1CCCN1C(=O)[C@@H](NC(=O)[C@H](C)NC(=O)[C@H](CO)NC(=O)[C@H](CO)NC(=O)[C@H](CC(C)C)NC(=O)[C@H](Cc1c[nH]c2ccccc12)NC(=O)[C@H](Cc1ccc(O)cc1)NC(=O)[C@H](Cc1c[nH]cn1)NC(=O)[C@H](CS)NC(=O)[C@H](CO)NC(=O)[C@H](Cc1ccc(O)cc1)NC(=O)[C@@H](N)CO)C(C)C)C(=O)N[C@@H](C)C(=O)N[C@@H](CO)C(=O)N[C@@H](CCCNC(=N)N)C(=O)N[C@@H](CCCNC(=N)N)C(=O)N[C@H](C(=O)N[C@@H](CCCNC(=N)N)C(=O)N[C@@H](CCCNC(=N)N)C(=O)N1CCC[C@H]1C(=O)O)[C@@H](C)CC | Streptavidin (Streptomyces avidinii, UniProt P22629) | binding |  | 0.01
